Assay results from different studies.
Each line is one published result; not all experiments were run side by side.
Organism: Staphylococcus aureus

CC[C@H](C)[C@H](NC(=O)[C@@H](CCC(=O)O)NC(=O)[C@H](CC(C)C)NC(=O)c1cccc(-c2ccccn2)n1)C(=O)N[C@H]1CCCCNC(=O)[C@H](CC(N)=O)NC(=O)[C@@H](CC(=O)O)NC(=O)[C@H](Cc2c[nH]cn2)NC(=O)[C@@H](Cc2ccccc2)NC(=O)[C@H]([C@@H](C)CC)NC(=O)[C@@H](CCCN)NC1=O  MIC (USA300 methicillin-resistant; 18 h, 37 °C, 0.3 mM ZnSO4 LB): > 64 µg/mL
COc1ccc2ccc(O)c(/C=N/[C@H]3CCCC[C@H]3/N=C/c3cc(C(C)(C)C)ccc3O)c2c1  MIC (bacterial growth, broth microdilution; vancomycin-intermediate): > 40 µM
CCn1c(-c2ccc(-c3ccc(OC)cc3)cc2)c(-c2ccc(-c3ccc(OC)cc3)cc2)n(CC)c1=[Se]  MIC (microbial growth, broth dilution; ATCC700699 VISA; 24 h, drug-resistant strain): > 40 µM
CC(C)C[C@@H](NC(=O)[C@@H](CCCNC(=N)N)NC(=O)[C@H](N)CCCNC(=N)N)C(=O)N[C@H](CC(C)C)C(=O)N[C@H](CCCNC(=N)N)C(=O)N[C@H](CCCCN)C(=O)N[C@H](CC(C)C)C(=O)N[C@H](CCCCN)C(=O)NCC(=O)N[C@H](CCCCN)C(=O)N[C@H](CCCCN)C(=O)N[C@H](CC(C)C)C(=O)N[C@H](Cc1ccc(O)cc1)C(=O)N[C@H](CC(C)C)C(=O)N[C@H](Cc1ccc(O)cc1)C(=O)N[C@H](Cc1ccccc1)C(=O)N[C@H](CCCCN)C(=O)N[C@H](CC(C)C)C(=O)N[C@H](CCC(N)=O)C(=O)N[C@H](CC(C)C)C(=O)N[C@H](CC(C)C)C(=O)N[C@H](CCCCN)C(=O)N[C@H](CCCCN)C(N)=O  MIC (KCTC 1621, Mueller-Hinton broth; added: 150 mM NaCl): 32 µM
CCCCCCCCCCCCCC(=O)N[C@H]1C(=O)N[C@@H](CN)C(=O)N[C@@H](CO)C(=O)N[C@@H](Cc2ccc(O)cc2)C(=O)O[C@H]1C  MIC (SH1000; added: menaquinone-4, molar ratio 2): 2 µg/mL
CC(C)[C@H](NC(=O)[C@H](Cc1ccc(O)cc1)NC(=O)[C@H](CS)NC(=O)[C@@H](NC(=O)[C@H](CCCNC(=N)N)NC(=O)[C@H](Cc1ccccc1)NC(=O)[C@H](CS)NC(=O)[C@H](Cc1c[nH]c2ccccc12)NC(=O)[C@@H](N)CCCNC(=N)N)C(C)C)C(=O)NCC(=O)N[C@@H](Cc1ccccc1)C(=O)N[C@@H](CS)C(=O)N[C@@H](Cc1ccc(O)cc1)C(=O)N[C@@H](Cc1c[nH]c2ccccc12)C(=O)N[C@@H](CCCCN)C(=O)N[C@@H](CS)C(=O)N[C@@H](CCCNC(=N)N)C(=O)O  MIC (broth microdilution; ATCC 25923, Mueller-Hinton broth; 16 to 20 h, 37 °C): 1.1 µg/mL
CC[C@H]1OC(=O)[C@H](C)[C@@H](OC(=O)Cc2ccccc2)[C@H](C)[C@@H](O[C@@H]2O[C@H](C)C[C@H](N(C)C)[C@H]2O)[C@](C)(OC)C[C@@H](C)C(=O)[C@H](C)[C@@H](O)[C@]1(C)O  MIC (DSM 20231 MSSA): 4 µg/mL
C#CCNC(=O)[C@H]1NC(=O)[C@H]2NC(=O)[C@H](NC(=O)[C@@H]3NC(=O)[C@H](CC(N)=O)NC(=O)[C@H](NC(=O)[C@@H](CC(C)C)NC)[C@H](O)c4ccc(c(Cl)c4)Oc4cc3cc(c4O[C@@H]3O[C@H](CO)[C@@H](O)[C@H](O)[C@H]3O[C@H]3C[C@](C)(N)[C@H](O)[C@H](C)O3)Oc3ccc(cc3Cl)[C@H]2O)c2ccc(O)c(c2)-c2c(O)cc(O)cc21  MIC (LIM-2 VISA): 1 µM
CN[C@@H]1[C@H](O)[C@H](NC)[C@H]2O[C@]3(O)[C@H](O[C@@H]2[C@H]1O)O[C@H](C)C[C@H]3NC(=O)Cc1ccc(Cl)cn1  MIC (microbial growth, broth dilution; 8325): 12.5 µg/mL
CC(C)CCCCCCCCC/C=C/C(=O)N[C@@H](CC(N)=O)C(=O)N[C@H]1CNC(=O)[C@@H]2CCCN2C(=O)[C@H](C(C)C)NC(=O)[C@@H](CN)NC(=O)CNC(=O)[C@H](CC(=O)O)NC(=O)CNC(=O)[C@H](CC(=O)O)NC(=O)[C@H](CC(=O)O)NC(=O)[C@H]2CCCCN2C1=O  MIC (broth microdilution; MRSA USA300, Mueller-Hinton broth, Mg2+ 10 mg/L; 16 h, 37 °C, added: Ca2+ 5 mM): 4 µg/mL
CC[C@H](C)[C@@H]1NC(=O)[C@H](CO)NC(=O)C(C)(CCCCN)NC(=O)[C@@H]2CSSC[C@@H](C(=O)N[C@@H](Cc3ccc(O)cc3)C(N)=O)NC(=O)[C@H](CCCCN)NC(=O)[C@@H]3CSSC[C@H](NC(=O)[C@H](CCCNC(=N)N)NC(=O)C(C)(CC(C)C)NC(=O)[C@H](CC(=O)O)NC(=O)[C@H](CC(=O)O)NC(=O)[C@H](CCC(=O)O)NC(=O)[C@H](CC(N)=O)NC(=O)[C@H](Cc4c[nH]c5ccccc45)NC(=O)C(C)(CC)NC(=O)CNC(=O)[C@H](CC(N)=O)NC(=O)[C@@H](NC(=O)CNC(=O)[C@H](Cc4ccccc4)NC(=O)CN)CSSC[C@H](NC(=O)[C@H](Cc4ccc(O)cc4)NC(=O)CNC(=O)CNC(=O)[C@H](CCCCN)NC(=O)[C@H](Cc4ccc(O)cc4)NC(=O)[C@H]4CCCN4C(=O)[C@@H]4CCCN4C1=O)C(=O)N[C@@H](C)C(=O)N[C@@H](CCCCN)C(=O)N1CCC[C@@H]1C(=O)NCC(=O)N[C@@H](Cc1ccccc1)C(=O)N[C@@H](C(C)C)C(=O)N3)C(=O)N[C@@H](Cc1c[nH]cn1)C(=O)NC(C)(C)C(=O)N[C@@H](Cc1c[nH]cn1)C(=O)N2 (stereo partly shown)  MIC (473, methicillin-resistant mecA, cation-adjusted Mueller Hinton broth; 18 h, 37 °C): 2 µM
CC(=O)N[C@@H](CC(C)C)C(=O)N[C@H]1CSSC[C@@H](C(=O)N2CCC[C@H]2C(N)=O)NC(=O)[C@H](CCCCN)NC(=O)[C@H](C(C)C)NC(=O)[C@H](CCCCN)NC(=O)CNC(=O)[C@H](CC(C)C)NC(=O)[C@H](Cc2ccccc2)NC(=O)[C@H](CCCCN)NC(=O)[C@H](CC(C)C)NC(=O)[C@H](CCC(=O)O)NC(=O)[C@H](Cc2ccccc2)NC(=O)[C@H](CCCNC(=N)N)NC(=O)[C@H](CCCCN)NC(=O)[C@H](CC(C)C)NC(=O)[C@H](CC(=O)O)NC(=O)[C@@H]2CCCN2C(=O)[C@H](CCCCN)NC(=O)[C@H](C(C)C)NC(=O)[C@H](CCCCN)NC(=O)[C@H](CCCCN)NC(=O)[C@H](CCCCN)NC1=O  MIC (broth dilution; laboratory strain; 24 h): > 40 µM
CC[C@H](C)[C@H](NC(=O)[C@H](Cc1c[nH]c2ccccc12)NC(=O)[C@H](CCCNC(=N)N)NC(=O)[C@@H](N)CCCNC(=N)N)C(=O)N[C@@H](CCCNC(=N)N)C(=O)N[C@@H](Cc1c[nH]c2ccccc12)C(=O)N[C@H](C(=O)N[C@H](C(N)=O)[C@@H](C)O)[C@@H](C)CC  MIC (6538): 32 µg/mL
CSCC[C@H](NC=O)C(=O)N[C@@H](CCCNC(=N)N)C(=O)N[C@H](C(=O)NCC(=O)N[C@@H](CC(N)=O)C(=O)N[C@@H](C)C(=O)N[C@@H](CC(N)=O)C(=O)NCC(=O)N1CCN(c2ccc(N3C[C@H](CNC(C)=O)OC3=O)cc2F)CC1)[C@@H](C)O  MIC (broth dilution; Newman): > 200 µM
CC(C)C[C@@H]1NC(=O)[C@@H](CC(C)C)NC(=O)[C@H](CCN)NC(=O)[C@@H](NC(=O)[C@H](CCN)NC(=O)[C@@H](NC(=O)CCCCN=[N+]=[N-])[C@@H](C)O)CCNC(=O)[C@H]([C@@H](C)O)NC(=O)[C@H](CCN)NC(=O)[C@H](CCN)NC1=O  MIC (broth microdilution; MRSA USA300, cation-adjusted Mueller-Hinton broth; 20 to 24 h, 37 °C, 0.002% polysorbate 80): > 16 µg/mL
CC[C@H](C)[C@H](NC(=O)[C@@H](CCCNC(=N)N)NC(=O)[C@H](CCCNC(=N)N)NC(=O)[C@@H]1CCCN1C(=O)[C@@H]1CCCN1C(=O)[C@H](CCCNC(=N)N)NC(=O)[C@@H]1CCCN1C(=O)[C@H](CCCNC(=N)N)NC(=O)[C@@H]1CCCN1C(=O)[C@H](CC(C)C)NC(=O)[C@H](Cc1ccc(O)cc1)NC(=O)[C@@H]1CCCN1C(=O)[C@@H]1CCCN1C(=O)[C@H](CCCCN)NC(=O)[C@H](CC(=O)O)NC(=O)[C@@H](N)C(C)C)C(=O)N[C@@H](Cc1cc(I)c(O)c(I)c1)C(=O)N[C@@H](CC(N)=O)C(=O)N[C@H](CCCNC(=N)N)C(N)=O  MIC (broth microdilution; DSM 6247; 18 h, 37 °C, 25% MHB2): > 128 µg/mL
C#CCOc1ccc(CN[C@@]2(C)C[C@H](O[C@H]3[C@H](Oc4c5cc6cc4Oc4ccc(cc4Cl)[C@@H](O)[C@@H](NC(=O)[C@@H](CC(C)C)NC)C(=O)N[C@@H](CC(N)=O)C(=O)N[C@H]6C(=O)N[C@H]4C(=O)N[C@H](C(=O)N[C@H](C(=O)O)c6cc(O)cc(O)c6-c6cc4ccc6O)[C@H](O)c4ccc(c(Cl)c4)O5)O[C@H](CO)[C@@H](O)[C@@H]3O)O[C@@H](C)[C@H]2O)cc1OC  MIC (broth microdilution; VISA LIM-2, tryptic soy broth; 20 to 24 h, 37 °C, 0.002% polysorbate 80): 16 µg/mL
Cc1ccc2[nH]c3c(c2c1)CCCC3NCCc1ccc(O)cc1 (stereo not shown)  MIC (broth microdilution; SG511): 16 µg/mL
CC[C@H](C)[C@H](NC(=O)[C@@H](CCCNC(=N)N)NC(=O)[C@H](CCCNC(=N)N)NC(=O)[C@H](CCC(=O)O)NC(=O)[C@H](Cc1c[nH]c2ccccc12)NC(=O)[C@H](CCCNC(=N)N)NC(=O)[C@@H]1CCCN1C(=O)[C@H](CCCNC(=N)N)NC(=O)[C@@H]1CCCN1C(=O)[C@H](CC(C)C)NC(=O)[C@H](Cc1ccc(O)cc1)NC(=O)[C@@H]1CCCN1C(=O)[C@@H]1CCCN1C(=O)[C@H](CCCCN)NC(=O)[C@H](CC(=O)O)NC(=O)[C@@H](N)C(C)C)C(=O)N[C@@H](Cc1ccc(O)cc1)C(=O)N[C@@H](CC(N)=O)C(=O)N[C@H](CCCNC(=N)N)C(N)=O  MIC (broth microdilution; DSM 6247; 18 h, 37 °C, 25% MHB2): > 128 µg/mL

Excerpt of the above:
CC(C)C[C@@H](NC(=O)[C@@H](CCCNC(=N)N)NC(=O)[C@H](N)CCCNC(=N)N)C(=O)N[C@H](CC(C)C)C(=O)N[C@H](CCCNC(=N)N)C(=O)N[C@H](CCCCN)C(=O)N[C@H](CC(C)C)C(=O)N[C@H](CCCCN)C(=O)NCC(=O)N[C@H](CCCCN)C(=O)N[C@H](CCCCN)C(=O)N[C@H](CC(C)C)C(=O)N[C@H](Cc1ccc(O)cc1)C(=O)N[C@H](CC(C)C)C(=O)N[C@H](Cc1ccc(O)cc1)C(=O)N[C@H](Cc1ccccc1)C(=O)N[C@H](CCCCN)C(=O)N[C@H](CC(C)C)C(=O)N[C@H](CCC(N)=O)C(=O)N[C@H](CC(C)C)C(=O)N[C@H](CC(C)C)C(=O)N[C@H](CCCCN)C(=O)N[C@H](CCCCN)C(N)=O  MIC (KCTC 1621, Mueller-Hinton broth; added: 150 mM NaCl): 32 µM
